Literature values that unrelated publications cite.
Lines come from different studies, so protocols differ. Numbers after ± are the reported error.

Compound | cell line | assay | setting | how to read | measurement | value
O=c1[nH]c(=O)n([C@@H]2O[C@H](CO)[C@@H](O)[C@@H]2F)cc1[125I] | RG2 expressing HSV1-tk | – | 2 h | reference: HSV1-tk over wild-type RG2 | uptake selectivity ratio | 9.9 ± 4.6
NC(=S)NN=Cc1ncccc1N | human cervical cancer cells | – | concentration not given, clinically attainable concentrations and times, together with: cisplatin | – | cell survival | 40%
C/C(=N\c1ccc(O)cc1)c1cc2ccccc2n1C | DU-145 | – | concentration not given, together with: EGF | – | cell migration | decreased
Nc1cc(C(F)(F)F)c(-c2nc(N3CCOCC3)nc(N3CCOCC3)n2)cn1 | AU565 | – | – | – | GI50 | 320 nM
O=c1ncccn1[C@@H]1O[C@H](CO)[C@@H](O)[C@H]1O | TK6 | – | – | – | IC20 | 20000 nM
C=CCC(CCC)C(=O)O (centres unmarked) | CALUX reporter cell lines | reporter gene | cell-total, minimum across | – | EC10 | 9000 nM
CC(C)(C)c1nc(-c2cccc(NS(=O)(=O)c3c(F)cccc3F)c2F)c(-c2ccnc(N)n2)s1 | melanoma cell line | colony formation | – | – | EC50 | 9.5 nM
O=C(Nc1nccs1)c1cnn(-c2ccccc2)c1-n1cccc1 | human monocytes | phagocytosis of anti-D RBCs | 5 µM, commercial sample | – | inhibition | > 69%
C[C@H]1COCCN1c1nc(-c2cnc(N)cc2C(F)F)nc(N2CCOCC2)n1 | CAL-27 | – | – | – | GI50 | 349 nM
CCCC(C)C(=O)O (centres unmarked) | CALUX reporter cell lines | reporter gene | cell-total, minimum across | – | EC10 | 41000 nM
Cc1c(C#N)cccc1[C@@H](C)Nc1nnc(C)c2cnc(N3CCOCC3)cc12 | A549 | 3D cell viability | 14 d | – | IC50 | 135 ± 57.8 nM
CCCC(CCC)C(=O)O | CALUX reporter cell lines | reporter gene | cell-total, minimum across | – | EC10 | 9000 nM
Nc1ccc(/C=C/C(=O)NCc2cc3cc(-c4ccc(C(=O)N5CCC(F)(F)CC5)cc4)cc(-c4ccc(F)cc4)c3o2)cn1 | CAKI-1 | cell viability | – | – | EC50 | 600 nM
CCCC(C)(C)C(=O)O | CALUX reporter cell lines | reporter gene | cell-total, minimum across | – | EC10 | 24000 nM
Cc1ncccc1NC(=O)c1ccc2c(c1)CC[C@@H]1C[C@@](O)(C(F)(F)F)CC[C@@]21Cc1ccccc1 | A549 | IL-6 release | concentration not given | – | inhibition | 60 to 80%
C=CCCC(=O)O | CALUX reporter cell lines | reporter gene | cell-total, minimum across | – | EC10 | 38000 nM
Cc1n[nH]c(C(=O)Nc2cnc3[nH]c(-c4ccccc4)cc3c2)c1C | KIT D816V cells | – | – | – | GI50 | 6.1 nM
CCCCCC(CCC)C(=O)O (centres unmarked) | CALUX reporter cell lines | reporter gene | cell-total, maximum across | – | EC10 | 100000 nM
CN(C)c1ccc(C(=O)N(CC(=O)NCc2ccccc2)Cc2ccc(C(=O)Nc3ccccc3N)cc2)cc1 | CAL-27 | cellular HDAC activity, inhibitor | together with: Boc-Lys(ε-Ac)-AMC substrate | – | IC50 | 327 ± 33 nM
O=c1[nH]c(=O)n([C@H]2C[C@H](O)[C@@H](CO)O2)cc1CCC[18F] | RG2 expressing HSV1-tk | – | 2 h | reference: HSV1-tk over wild-type RG2 | uptake selectivity ratio | 20.5 ± 4.4
Cc1ncccc1NC(=O)c1ccc2c(c1)C(=O)C[C@@H]1C[C@@](O)(c3ccccc3)[C@H](O)C[C@@]21Cc1ccccc1 | A549 | TNF-alpha release | concentration not given | – | inhibition | 60 to 80%
O=c1[nH]c(=O)n([C@H]2C[C@H](O)[C@@H](CO)O2)cc1CCCC[18F] | RG2 expressing HSV1-tk | – | 2 h | reference: HSV1-tk over wild-type RG2 | uptake selectivity ratio | 14.9 ± 4
CO[C@]1(C(=O)N[C@@H](C)c2ccc(-n3cc(F)cn3)nc2)CC[C@H](c2nc(C)cc(Nc3cc(C)[nH]n3)n2)CC1 | TT (RET C634W) | cell growth | – | – | GI50 | 15 nM
